Results collected from several papers.
± gives the spread as reported.

SMILES	test	test system	setting	quantity	value
CNC(=O)n1ccc2cc(Oc3ccnc(NC(=O)c4ccc(C5CCN(CCO)CC5)cc4)c3)c(OCCOC)cc21	–	human, plasma	oral, 35 mg, 144 h	AUC(0-inf) extrapolated	< 5%
CC(C)CC(=O)OC[C@H]1O[C@@](C#N)(c2ccc3c(N)ncnn23)[C@H](O)[C@@H]1O	–	Dogs plasma	5 µM, 30 min	remaining compound	97.4 ± 0.513%
CN1CC[C@@H](c2c(O)cc(O)c3c(=O)cc(-c4ccc(C(F)(F)F)cc4Cl)oc23)[C@@H]1CO	measured: Vomiting	B-cell malignancies	oral, 200 mg, intermittent dosing	patients with adverse event	100%
COc1ccc2nc3cc(Cl)ccc3c(Nc3cc(CN4CCCC4)c(O)c(CN4CCCC4)c3)c2n1	–	mouse, blood	intraperitoneal, 14 mg/kg	mean corpuscular haemoglobin	16.9 pg
COc1cc2c(Oc3ccc4[nH]c(C)cc4c3F)ccnc2cc1OCC1(N)CC1	–	paediatric recurrent refractory sarcoma	12 mg	grade 3 Myalgia	0%
C[C@]1(CO)Cc2ncn(-c3ccc(C#N)c(Cl)c3)c2C(=O)O1	–	human	80 mg single dose	subjects with drug-related dysgeusia	14.3%
CO[C@H]1C[C@@H]2CC[C@@H](C)[C@@](O)(O2)C(=O)C(=O)N2CCCC[C@H]2C(=O)O[C@H]([C@H](C)C[C@@H]2CC[C@@H](OC(=O)NCCOCCOCCOCCOCCOCCOCCOCCOCCC(=O)N3CCc4cc(Cn5nc(-c6ccc7oc(N)nc7c6)c6c(N)ncnc65)ccc4C3)[C@H](OC)C2)C[C@@H](O)[C@H](C)/C=C(\C)[C@@H](O)[C@@H](OC)C(=O)[C@H](C)C[C@H](C)/C=C/C=C/C=C/1C	phase 1 dose escalation	advanced solid tumour patients	intravenous, 10 mg weekly, grade ≥3	deaths due to TRAEs	0%
C[C@]1(O)C[C@@](N)(c2ccc(-c3nc4n(c3-c3ccccc3)COc3ccncc3-4)cc2)C1	–	human, advanced or metastatic solid tumours	intermittent, dose escalation total	patients with grade ≥3 Rash TEAE	14.3%

Repeated from above:
SMILES	test	test system	setting	quantity	value
CC(C)CC(=O)OC[C@H]1O[C@@](C#N)(c2ccc3c(N)ncnn23)[C@H](O)[C@@H]1O	–	Dogs plasma	5 µM, 30 min	remaining compound	97.4 ± 0.513%
